Published values from different studies.
Protocols differ between the studies behind these lines. Several values in a cell are separate wells, animals, samples, runs or records.
CDK5: Cyclin-dependent kinase 5 (CDK5, Homo sapiens, UniProt Q00535)
Chain of UniProt Q00535 (whole entry, looked up): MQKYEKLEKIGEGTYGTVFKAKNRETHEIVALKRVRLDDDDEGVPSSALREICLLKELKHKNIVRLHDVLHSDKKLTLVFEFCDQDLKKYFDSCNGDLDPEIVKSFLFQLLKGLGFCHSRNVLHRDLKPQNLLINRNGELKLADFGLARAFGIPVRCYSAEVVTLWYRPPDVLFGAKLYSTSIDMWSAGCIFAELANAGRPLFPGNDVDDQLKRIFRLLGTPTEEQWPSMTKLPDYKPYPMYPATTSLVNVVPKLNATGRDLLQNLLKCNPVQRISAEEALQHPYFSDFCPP
CDK5 with p25: Cyclin-dependent kinase 5, with p25 (CDK5, Homo sapiens, UniProt Q00535)
CDK5 with p35: Cyclin-dependent kinase 5, with p35 (CDK5, Homo sapiens, UniProt Q00535)

Cc1cccc(O[C@H]2CCC[C@@H](C(C)CNCc3ccncc3)C2)c1 (relative stereo) has an inhibition of 0% (CDK5; enzyme activity, inhibitor; 1 µM).
CNC(=O)C[C@H](Cc1ccc(C#N)cc1)NC(=O)c1cc(-c2ccc(CN[C@H](C)c3ccc(C)cc3)o2)ccc1Cl: “activity vs control” 103% (CDK5 with p25; enzyme activity, inhibitor; 1 µM).
COCC12C(=O)NC3C4(C(OC)CC1O)C1CC5(O)C(OC)C(O)C(OC(C)=O)(C1C5OC(=O)c1ccccc1)C3(O)C(OC)C24 (stereo not drawn) gave a remaining activity of 107% and 105% (CDK5 with p35; kinase activity, inhibitor, ProQinase kinase profiling; 25 µM; relative to: control).
With COc1c(OCCCN2CCOCC2)ccc2c1N=C(NC(=O)c1cnc(N)nc1)N1CCN=C21 the remaining activity was 104% (CDK5 with p35; kinase activity, inhibitor; 1 µM; relative to: untreated control).
CCN1CCN(Cc2ccc(C(=O)Nc3ccc(C)c(NCc4cnc5[nH]ccc5c4OC)c3)cc2C(F)(F)F)CC1 has a remaining binding of 100% (CDK5; binding, competition with immobilised ligand; 1 µM).
With C=CC(=O)N1CCc2ccc(-n3c(=O)ccc4cnc5ccc(-c6cnn(C)c6)cc5c43)cc21 the remaining binding was 92% (CDK5; KINOMEscan; 1 µM; relative to: DMSO control).
With CC(C)=CC1OC(C)(C)C2C=C3C(=O)C(Cl)=CC(O)C3C3C(O)C4OC4C(=O)C132 (stereo not drawn) the remaining binding was 81% (CDK5; cell-free assay, competition with immobilised ligand; 10 µM).
With Cc1ccc(-c2c(/C=C(\C#N)C(=O)NC(C)C)n(CCCO)c3ncnc(N)c23)cc1 the remaining binding was 88% (CDK5; cell-free assay, competition with immobilised ligand; 1 µM).
For CCc1nnc(Nc2cnc([C@@H]3CCCN(C(=O)CCc4cccnc4)C3)cn2)s1, “activity vs control” read 102% (CDK5 with p35; enzyme activity, inhibitor, ADP detection; 1 µM).
Under “activity vs control”, O=C(Cc1ccc(OCc2ccccc2)cc1)NC1(C(=O)O)CCN(C(=O)c2ccc(-c3cccc(Cl)c3)cc2)CC1 is recorded as 102% (CDK5 with p25; enzyme activity, inhibitor; 10 µM).
Cc1nn(C)c(C)c1/C=C/C(=O)N1CCC[C@H](Cc2ccc(Nc3ccccn3)nn2)C1: “activity vs control” 98% (CDK5 with p25; enzyme activity, inhibitor, ADP detection; 1 µM).
For Nc1ncc(-c2cc(-c3cnn(CC(F)(F)F)c3)ncc2F)nc1C(=O)NC1CNCC(F)C1 (stereo not drawn), the remaining activity was 98.5% (CDK5 with p35; enzyme activity; 1 µM; relative to: DMSO control).
Under “activity vs control”, Cc1cc(C)nc(Nc2ccc([C@@H]3CCCN(C(=O)/C=C/c4c(C)nn(C)c4C)C3)nc2)n1 is recorded as 99% (CDK5 with p25; enzyme activity, inhibitor, ADP detection; 1 µM).
For C=CC(=O)N1CCCC(n2c(=O)c3ncccc3n(Cc3ccc(Oc4ccccc4)cc3)c2=O)C1 (stereo not drawn), the remaining binding was 100% (CDK5; cell-free assay, competition with immobilised ligand; 1 µM).
COc1cc(Nc2nccc(-c3cnn4nc(OC)ccc34)n2)cc(C(F)(F)F)c1 has a remaining binding of 88% (CDK5; binding, competition with immobilised ligand; 1 µM).
The remaining activity of COc1ccc(NC(=O)Nc2ccc3c(c2)C(=O)N(C(C)CO)CC(C)C(CN(C)Cc2ccc4c(c2)OCO4)O3)cc1 (stereo not drawn) is reported as 97% (CDK5 with p25; kinase activity, KinaseProfiler; 0.03 µM, species human; relative to: control).
C=CC(=O)Nc1cccc(-c2cnc3[nH]cc(C(=O)NC(C)(C)C)c3n2)c1 has an inhibition of 16% (CDK5 with p25; enzyme activity, inhibitor; 0.1 µM).
The inhibition of CN1CCN(Cc2ccc(-c3ccc(CO[C@H]4CCC[C@@H]4NC(=O)c4cc(-c5cnn(C)c5)cnc4N)cc3)cc2)CC1 is reported as 8% (Cyclin-dependent kinase 5, inactive (CDK5, Homo sapiens, UniProt Q00535); SelectScreen kinase profiling; 0.1 µM).
The remaining activity of O=C=[N][Ru-4]123([n]4c5ccc(O)cc5c5c6c(c7cc(F)c[n+]1c7c54)C(=O)NC6=O)[S+]1CC[S+]2CC[S+]3CC1 (stereo not drawn) is reported as 106% (CDK5 with p25; enzyme activity; 100 nM, human enzyme, added: 10 µM ATP; relative to: untreated).
Cc1cc(C)nc(Nc2ccc([C@@H]3CCCN(C(=O)/C=C/c4csc(C)n4)C3)nc2)n1 — result for “activity vs control”: 105% (CDK5 with p35; enzyme activity, inhibitor, ADP detection; 1 µM).
For CN1C[C@@H](c2c[nH]c3cc(Br)ccc23)NC[C@@H]1c1c[nH]c2cc(Br)ccc12, the remaining activity was 98% (CDK5 with p35; enzyme activity, inhibitor; 10 µM).

Excerpt of the above:
Cc1cc(C)nc(Nc2ccc([C@@H]3CCCN(C(=O)/C=C/c4csc(C)n4)C3)nc2)n1 — result for “activity vs control”: 105% (CDK5 with p35; enzyme activity, inhibitor, ADP detection; 1 µM).
